Results gathered from unrelated publications.
Each numbered part is a random draw from the data of one study; scales do not carry over between parts. Positions count from the first letter of the parent shown.

Study 1
Target: RING finger protein unkempt homolog, zinc fingers 1-6, GST-SBP tag (UNK, Homo sapiens, UniProt Q9C0B0, residues 30-357)
Sequence of UniProt Q9C0B0 (30-357, looked up): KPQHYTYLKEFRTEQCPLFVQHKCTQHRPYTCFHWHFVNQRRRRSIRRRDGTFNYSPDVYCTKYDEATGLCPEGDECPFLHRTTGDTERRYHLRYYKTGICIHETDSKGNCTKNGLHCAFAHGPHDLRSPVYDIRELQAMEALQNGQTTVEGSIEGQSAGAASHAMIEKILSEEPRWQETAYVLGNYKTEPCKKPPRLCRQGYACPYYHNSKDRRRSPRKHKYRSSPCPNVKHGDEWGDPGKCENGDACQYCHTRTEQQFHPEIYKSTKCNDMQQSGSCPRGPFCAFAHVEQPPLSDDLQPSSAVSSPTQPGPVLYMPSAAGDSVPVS
Method: RNA Bind-n-Seq
Form: RNA
Sample: in vitro
Tested at: not given
Setting: RNA with constant flanks, human and mouse sites, ends assumed
Baseline: input RNA pool
Direction: higher = stronger binding
All sequences stand within: GGGAGUUCUACAGUCCGACGAUC … CAACAGAGGAUUGAGCAUCA
| Oligonucleotide | bound/input enrichment [ratio] |
| --- | --- |
| UGCUUAAUGUAUUAGACAUUUUUAGCCCAUAAUUAAAACAUUGUUGCUUUUACACAGGUGUAGUUUGGUGCAUUUCAUUCAUAGUGUUUUAAAGUUAUUUAUAAAUUAACCAAUUACACU | 7.65 |
| AAAGAGUGGGAAGAGUAUGUGCAGAUCCGGACUCUGGUUGAGAAAAUACGGAAAAAGCAAAAAGGUCUGUCCGUUACUUUUGAUGGAAAAAGAGAAGAUUACUUUCCUGAUCUAAUGAAA | 0.135 |
| CAGAUGCUUGUGACCACACCAGAAAAAUGGGAUGUAGUGACAAGAAAGAGUGUUGGGGAUGUAGCUCUUUCCCAGAUUGUAAGGCUCCUUAUUCUUGAUGAAGUUCAUUUGCUGCAUGAA | 0.117 |
| CGCCUGGUGGACAGCAAAGGCUUUGAUGAAUACAUGAAGGAGCUAGGAGUGGGAAUAGCUUUGCGAAAAAUGGGCGCAAUGGCCAAGCCAGAUUGUAUCAUCACUUGUGAUGGUAAAAAC | 0.391 |
| UUCAAGCUAGAUCAGCAAGAGUCACGGAUAAUGGAUGAAGAAUGCCUAAGUCAAAACUUUUUAGAGAUCUGGCUAGACAGUUAUUCUGAACUAUGGCUUCAAGAUGAACAAGACAAGCCU | 0.137 |
| AGAGCCCAGGACGUUGAUGCUACAAACCCAAAUUAUGAAAUUAUGUGUAUGAUCAGAGACUUUAGAGGAAGUUUGGAUUAUAGACCAUUAACAACAGCAGAUCCUAUUGAUGAACAUAGG | 0.931 |
| GACAUCUGUCGUAGAAACCUCGAUAUUGAGCGUCCAACCUAUACUAACCUGAAUAGGUUAAUAGGUCAAAUUGUGUCCUCCAUCACUGCUUCCCUGAGAUUUGAUGGAGCCCUGAAUGUU | 0.108 |
| UCCCGUUUUGGGAAUGCUUUCCAUCUAUGUCGGGAAGUACUGCGUUUAACCAAGCUGGUUGUGGACAGCCAUGUGCAGUAUCGCUUGGGCAAUGUAGAUGCCUUCCAGCUGGCAGAUGGU | 0.105 |
| AAAUUUGAGAAAGUUUGAUCCAAAAUAUUACCUAUUUUAAAAAUCAGGUAAAACAGGAGUAAUAAACGAAAUGGGUUACAUUCAACAUGAGAAAUUGAUUUCCUAGAAGUGAAAUUUAGC | 0.293 |
| UUCAUCUUGAGGUGGCCAAUAUGGGGAUGUGGAAUUUUUAUACAAGUUAUAAGUGUUUGGCAUAGUACUUUUGGUACAUUGUGGCUUCAAAAGGGCCAGUGUAAAACUGCUUCCAUGUCU | 0.134 |
| UUGGACAUCCUCCUUCAGGAUACCACCAAAGAACCUUUGGAUCUGCCUGACAACCCCCGCAAUAGGCAUUUUACCAACAGCGUGCCUAACCCUAGGAUCUCAGAUGCUGAACUUGAAGCU | 0.768 |

Study 2
Target: Histone acetyltransferase KAT6A, winged helix 2, GST fusion (KAT6A, Homo sapiens, UniProt Q92794, residues 85-181)
Method: protein binding microarray
Form: double-stranded DNA, one strand shown
Sample: in vitro
Tested at: not given
Setting: 8-mer, flanks averaged, mean of 2 arrays, mostly near background
Baseline: not given
Direction: higher = stronger binding
Construct (chain): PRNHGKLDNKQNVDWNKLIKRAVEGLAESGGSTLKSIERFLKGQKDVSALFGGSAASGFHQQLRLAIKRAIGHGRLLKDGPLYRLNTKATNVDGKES
| Oligonucleotide | E-score |
| --- | --- |
| CCTGCATC | 0.165 |
| CTGAGGCA | 0.0223 |
| AGACCGCG | 0.215 |
| TACCATAA | -0.0721 |
| CCGTTCCG | 0.0985 |
| AACGAGCT | 0.0523 |
| GCGTGCGA | 0.113 |
| AGTGGCAG | -0.0506 |
| ATGCCGGG | 0.0972 |
| AAGCAGAG | 0.083 |
| TACTCCCA | 0.0683 |
| CGCCAAAA | 0.157 |
| TATGGTAA | -0.104 |
| GGATTTTA | -0.0417 |
| TCGCATAA | -0.0666 |
| GGCAGCGA | 0.0506 |
| GACGGATC | -0.00175 |
| AAACCTCA | 0.038 |
| AACCCATG | -0.19 |
| GAAAGGGC | 0.109 |
| GGGATGAC | -0.105 |
| GCCGACCA | 0.0755 |
| ATTGACGC | 0.0628 |
| GGGTACTA | -0.00138 |
| CAGGACGA | -0.0433 |

Study 3
Target: RNA binding protein fox-1 homolog 2, RRM domain, GST-SBP tag (RBFOX2, Homo sapiens, UniProt O43251-10, residues 100-194)
Method: RNA Bind-n-Seq
Form: RNA
Sample: in vitro
Tested at: 365 nM
Setting: natural RNA segment, single round, ends assumed
Baseline: no-protein control
Direction: higher = stronger binding
All sequences stand within: GGGAGUUCUACAGUCCGACGAUC … UGGAAUUCUCGGGUGCCAA
Construct (chain): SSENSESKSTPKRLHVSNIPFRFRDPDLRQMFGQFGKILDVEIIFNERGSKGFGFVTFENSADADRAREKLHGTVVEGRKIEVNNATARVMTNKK
| Oligonucleotide | RBNS enrichment (R) |
| --- | --- |
| CUGGUUUCUAAGAGUUUUGGGGGGCGGGGCUGUCACCACGUGCAGUAUCUCAAGAUAUUCAGGUGGCCAGAAGAGCUUGUCAGCAAGAGGAGGACAGAAUUCUCCCAGCG | 0.349 |
| CUCUGGUUUCUUGGCUGCAUGGUUCUCUGUAAAUUCAGUUGUAGCCACUGUCUUUGGCUAGAAAGCUGAAUUGGCUGUUGCUGAAAGGAAGGAGGGGAUGGGUGUGGCGA | 0.54 |
| UUGAAUGCAUACUAAACUGUAAAAAAAAUUUAUUUACAGCAUUGAAAAUUCAGAAGUUAAUGGUUUUUUGUAAGCACAAAAGAAGUAUGGUAGAAAUUAAUCUUAACAAG | 0.951 |
| GGUGGGCCAACCCUCAUGUCCCCCACUCCCUUGCAUUAUUUCUUUGUGUCUUGUUCAGGAGAAAAGAGGGCCUUGUUACUUUCCACUUCUCAAUAAAUGUUUGUUAUUCC | 12.7 |
| GCAUUACUAGAACCAUUGUCAAAGCAGUGGCAAGGGACGGAGAGGUCCCAACAGGAGUCAGGAAGAGGUUUGAUUAUAACCAAGAAAACUCACUAUGCUAGGAAUAGACU | 0.74 |
| UCUAGAGGCCGCGGCAGAAGGAGCUCUGUGAGUCCAAGGCCAGCCUGUUCUACAUAGUGAGUUCCAGGCCAGCCAAGACUACAUAGAGCAAUAAAGCCUGGUCUUUCUGU | 0.222 |
| ACCGGGUGGAGGCGGUGGGGACCCAGCCGCGCGCCGGGAGCGCUCCCCGGAAUGAGCCGCCCCACCCACCCCAAGGCUGGAGCCGCUGCACCCUGCUGUCCCUCUCCAGG | 14.7 |
| CCCAUUCCACAGGAACCCUAUUCCUACCCCCACCCCUGCCCACAAAUGCCACUGUGAUCCACAGCUGAAGUUGUUUCUAAUUGCCUAAAGGCAGUCUCUGUGUCUGGAGC | 0.479 |
| GCGGGCUUGCUGCUUCACCCUUGGGGAUGAAAUAAUGGAAGCUGGUUAAAGUGGAUGAGGUUGGAAAGAGUUGCCAUAAUGAGGUCCCACGUGGCUUCUUCGAUAGGAGC | 1.26 |
| CUUUUGUACUAUGGAGUUGUUUACAGUAAGCAUGACUGAACAAGCACUAACAUCCUCCUACACCGGUCCAUCGUGUUCGGCUCUGAUCAGGAAUAGACAAGGCUUCUUUG | 26.4 |
| CAUAUUGCUAACCUCACCAAAAGGUUUCGGGAACUGGAGGAAGUAUUAAUGUACAACUCACCACUUCAUGCCAUAGGAGGCUGAAGUUGACGUUGCCUUUUAAGCCUUUU | 0.4 |
| CUCCCCCUUCCUCCCUUUCCCCAUCCAGGGGCUGUGUAUUAUUGUGAGCGAAUAAACAGAGAGACGCAAUAUUACCCCAGCUAUUGACUGCCCACCCUGAGUGAUCAGAG | 0.602 |

Study 4
Target: ABI1, truncated, D143A, DHFR fusion (Arabidopsis thaliana)
Method: DHFR PCA, deep sequencing
Sample: yeast
Setting: methotrexate growth selection, single substitutions
Added: (+)-ABA 17 µM
Baseline: wild-type fitted maximum
Direction: higher = stronger binding
Parent: PYL1, truncated, DHFR fusion (Arabidopsis thaliana); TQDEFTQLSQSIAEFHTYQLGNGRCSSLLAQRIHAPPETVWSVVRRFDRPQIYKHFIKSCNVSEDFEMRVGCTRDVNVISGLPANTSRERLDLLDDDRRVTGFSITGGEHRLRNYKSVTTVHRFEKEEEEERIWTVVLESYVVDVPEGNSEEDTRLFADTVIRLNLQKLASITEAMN
| Change | relative binding score [%] |
| --- | --- |
| N177R | 66.5 |
| L166S | -2.17 |
| D97W | 47.7 |
| T106D | 23 |
| S42L | 51.3 |
| T101Y | 60.9 |
| C72A | 92 |
| R90W | -10.3 |
| R45H | 6.09 |
| R123L | 73.7 |
| S80V | -13.8 |
| L156C | 90.9 |
| E151G | 68.2 |
| L8I | 56.8 |
| T120D | -0.67 |
| D144Y | -3.86 |
| R74S | -7.99 |
| Y141N | -2.13 |

Study 5
Target: Interferon regulatory factor 5, full length, phosphomimetic (IRF5, Homo sapiens, UniProt Q13568-2, residues 1-514, S451D/S453D/S456D/S462D)
Method: protein-binding microarray
Form: double-stranded DNA, one strand shown
Sample: in vitro
Tested at: 940 nM top
Setting: 60-bp whole probe
Added: salmon DNA 0.4 mg/ml
Baseline: random background probes
Direction: higher = stronger binding
All sequences stand within: GCCTAGCAC … GTCTTGATTCGCTTGACGCTGCTG
| Oligonucleotide | fitted relative affinity [z-score] |
| --- | --- |
| CATTATATTTTAATCACATAGTGCTAG | 0.707 |
| GACGGACTGTGGTATCGGGACGTGCTA | 0.744 |
| GACAGTCTCCTACTGCTGACGTGCTAG | 0.214 |
| TTAGGTCTCCTTCTCATTTAGTGCTAG | 0.705 |
| GACGATAGCAGACTGGAGACGTGCTAG | -0.519 |
| TCATTTTGCCCTATTTAACTGTGCTAG | 1.49 |
| TCACCTTGCTTTATGTGACTGTGCTAG | 0.295 |
| GCCGGTATCCTACTGCTGACGTGCTAG | 0.0244 |
| TTCCCTCTCCCCTCTTGTGCTGTGCTA | 0.87 |
| GACGGTTTCGGTTTTGGGACGTGCTAG | 12.2 |
| GCCGATTTCAGTTCCGAGACGTGCTAG | 1.22 |
| TTATATTTCGGGTTTCGATTAGTGCTA | 6.37 |
| GACGGTATCGACACTGGCGACGTGCTA | 3.94 |
| GACGGTTTCCTTATCCTGATGTGCTAG | 1.25 |
| TTTTTTTTTTTTTTTGTATTGTGCTAG | 1.45 |
| GACGGTATCCTTCTACTGACGTGCTAG | 0.851 |
| AGAAATTTCTTTCTAATTCAGTGCTAG | 0.514 |
| TTAGGTTTCGCGACTGGGTTAGTGCTA | 2.93 |
| TGACGGCTCACTCCGTTGGAGTGCTAG | -0.583 |
| GACGAACTGGGGACTTGAGACGTGCTA | 0.0808 |
| GATGATTTCGGGTATCGAGACGTGCTA | 1.48 |
| ATTTTTTTTTTCATCATTGCGTGCTAG | 1.48 |
| GACGAACTGGGGTCTGGAGACGTGCTA | 0.0167 |
| TTAGGTCTCCTTACCCTTTAGTGCTAG | 0.319 |
| TACGGTTTCGACTATCGGGACGTGCTA | 7.6 |

A few entries again (study 5):
| Oligonucleotide | fitted relative affinity [z-score] |
| --- | --- |
| TCACCTTGCTTTATGTGACTGTGCTAG | 0.295 |
| GCCGGTATCCTACTGCTGACGTGCTAG | 0.0244 |
| TTCCCTCTCCCCTCTTGTGCTGTGCTA | 0.87 |
| GACGGTTTCGGTTTTGGGACGTGCTAG | 12.2 |
| GCCGATTTCAGTTCCGAGACGTGCTAG | 1.22 |
| TTATATTTCGGGTTTCGATTAGTGCTA | 6.37 |
| GACGGTATCGACACTGGCGACGTGCTA | 3.94 |
| GACGGTTTCCTTATCCTGATGTGCTAG | 1.25 |
| TTTTTTTTTTTTTTTGTATTGTGCTAG | 1.45 |
| GACGGTATCCTTCTACTGACGTGCTAG | 0.851 |
